Experimental data collected from several papers.
Each numbered part is a random draw from the data of one study; scales do not carry over between parts. Positions count from the first letter of the parent shown.

Study 1 — technique: universal PBM; molecule type: double-stranded DNA, one strand shown; sample: in vitro; concentration: not given; reading: higher = stronger binding
Target: Sal-like protein 4, full length isoform B (SALL4, Homo sapiens, UniProt Q9UJQ4-2, residues 1-616)
Notes: 8-mer, flanks averaged, mean of replicates
| Sequence | E-score |
| --- | --- |
| AGACAAGC | -0.0649 |
| AGAGCCCG | -0.361 |
| CGCTACTC | -0.00175 |
| AGCCAGGG | -0.3 |
| GCAAATCC | -0.0388 |
| TCGTGGAA | 0.123 |
| GCCTTTAA | 0.111 |
| AGAGACTC | -0.175 |
| AATCTCAC | -0.0049 |
| CGCGCAGC | -0.369 |
| CTGAAAAA | 0.0267 |
| CGTTGAGA | -0.16 |
| AGACGCGG | -0.18 |
| CGTTCATC | -0.043 |
| CCCCCCTA | -0.267 |
| AAAATTAC | 0.352 |
| AGCGATAG | -0.141 |
| CGATACAG | -0.0672 |
| AGCGAGCA | -0.139 |
| CATGGTCA | 0.0846 |
| ACATTACT | 0.245 |
| AGGGATAG | -0.0307 |
| CGGAACTC | -0.301 |
| TAATACAA | 0.327 |

Study 2 — technique: RNAcompete; molecule type: RNA; sample: in vitro; concentration: 20 nM; notes: 7-mer, probes averaged, single round; reference: mean of 7-mers; reading: higher = stronger binding
Target: PABPC1L2, full length, GST fusion (mouse, UniProt A0ABA7IW68)
Construct (chain): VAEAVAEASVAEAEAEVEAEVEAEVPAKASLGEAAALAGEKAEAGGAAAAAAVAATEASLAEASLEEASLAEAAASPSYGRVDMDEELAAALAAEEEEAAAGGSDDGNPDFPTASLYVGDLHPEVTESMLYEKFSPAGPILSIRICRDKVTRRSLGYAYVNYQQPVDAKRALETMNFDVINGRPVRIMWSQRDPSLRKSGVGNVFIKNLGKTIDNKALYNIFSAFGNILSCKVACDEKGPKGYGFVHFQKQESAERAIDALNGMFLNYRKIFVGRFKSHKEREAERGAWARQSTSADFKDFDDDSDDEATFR
| Sequence | 7-mer Z-score |
| --- | --- |
| GCAGUAU | -0.208 |
| GCUGUUA | -0.208 |
| ACUUGCC | -0.137 |
| UUCGAAG | -0.26 |
| UACCAAG | -0.0409 |
| CUAACUC | -0.257 |
| GGGGCAC | 0.591 |
| GGGCCUU | -0.24 |
| GCUAGCC | -0.354 |
| AAACAGG | 3.78 |
| CACCACA | 0.0297 |
| CGCCGAA | -0.0935 |
| GCCAGUA | -0.159 |
| CCGCGCU | -0.347 |
| GCGCAGC | -0.0863 |
| ACUGCUA | -0.237 |
| UGCGGGA | 0.119 |
| CCGGGUU | -0.307 |
| CCGCUGC | -0.412 |
| ACAUAGC | -0.0718 |

Study 3 — technique: aptamer microarray, sandwich; molecule type: DNA with 2'F-ANA; sample: in vitro; concentration: 200 nM; with: Cy3 exosite-II aptamer, 400 nM; reading: higher = stronger binding; sequence: GGTTGGTGTGGTTGG
Target: Prothrombin, mature alpha-thrombin (F2, Homo sapiens, UniProt P00734)
Notes: whole 15-mer aptamer, many near background
| Modification | mean fluorescence intensity |
| --- | --- |
| 2'F-ANA at 1 2 3 4 7 8 10 14 | 48.4 a.u. |
| 2'F-ANA at 4 6 7 10 14 | 60.1 a.u. |
| 2'F-ANA at 2 3 6 8 9 11 14 | 363 a.u. |
| 2'F-ANA at 3 4 6 8 9 11 15 | 482 a.u. |
| 2'F-ANA at 1 2 3 6 7 9 10 12 14 | 58.4 a.u. |
| 2'F-ANA at 2 6 8 9 11 13 | 308 a.u. |
| 2'F-ANA at 1 2 7 10 11 12 14 15 | 51.3 a.u. |
| 2'F-ANA at 1 5 8 14 | 58.8 a.u. |
| 2'F-ANA at 1 2 6 7 8 9 10 12 14 | 65.2 a.u. |
| 2'F-ANA at 2 7 8 10 12 14 | 108 a.u. |
| 2'F-ANA at 1 9 10 11 14 | 54.6 a.u. |
| 2'F-ANA at 3 4 5 6 7 11 12 14 15 | 56.1 a.u. |
| 2'F-ANA at 1 3 4 7 11 12 13 | 268 a.u. |
| 2'F-ANA at 2 4 5 6 7 9 10 12 13 14 | 46.7 a.u. |
| 2'F-ANA at 2 8 10 11 12 13 14 | 77.3 a.u. |
| 2'F-ANA at 4 10 11 12 13 14 | 170 a.u. |
| 2'F-ANA at 2 3 6 9 10 11 12 15 | 312 a.u. |
| 2'F-ANA at 3 5 10 12 14 15 | 53.2 a.u. |

Study 4 — target: CCNE1, cyclin fold, Cln2 fusion (human); technique: yeast growth competition, sequencing; sample: yeast; notes: strong parent motif; reference: not given; reading: higher = stronger binding
Starting sequence: NPAT docking peptide (human); PCHRRVLCFDSTT; partner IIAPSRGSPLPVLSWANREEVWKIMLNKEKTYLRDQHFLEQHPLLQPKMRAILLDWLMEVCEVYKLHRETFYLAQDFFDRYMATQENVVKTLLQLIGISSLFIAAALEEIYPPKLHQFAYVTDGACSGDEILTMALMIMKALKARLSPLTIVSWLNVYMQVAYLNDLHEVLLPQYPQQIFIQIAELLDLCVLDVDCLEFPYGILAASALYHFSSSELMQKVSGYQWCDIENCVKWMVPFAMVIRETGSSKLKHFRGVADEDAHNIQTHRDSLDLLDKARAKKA
| Variant | normalised enrichment score |
| --- | --- |
| L7A | -0.206 |
| P1A | 2.05 |
| F9A | 0.331 |
| R5K F9L | 0.382 |
| T13A | 1.26 |
| C2A | 2.04 |
| T12A | 1.75 |
| R5K | 0.892 |
| R4A | 1.74 |
| R5A L7A | -0.101 |

Study 5 — technique: DHFR PCA, deep sequencing; sample: yeast; with: (+)-ABA 1.4 µM; reference: wild-type fitted maximum; reading: higher = stronger binding
Target: ABI1, truncated, D143A, DHFR fusion (Arabidopsis thaliana)
Notes: methotrexate growth selection, single substitutions
Starting sequence: PYL1, truncated, DHFR fusion (Arabidopsis thaliana); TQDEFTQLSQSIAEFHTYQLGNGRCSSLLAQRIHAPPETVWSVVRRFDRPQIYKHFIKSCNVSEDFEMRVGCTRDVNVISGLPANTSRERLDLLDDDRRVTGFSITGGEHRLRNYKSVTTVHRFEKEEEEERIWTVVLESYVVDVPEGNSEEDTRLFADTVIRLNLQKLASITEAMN
| Variant | relative binding score [%] |
| --- | --- |
| E14R | 13.7 |
| F157S | 7.54 |
| V143A | 8.12 |
| L20Q | 65.5 |
| T154E | -14.1 |
| I57R | -1.99 |
| L94M | 40.8 |
| Q7S | 64.1 |
| E125Q | 77.8 |
| E129R | 44.9 |
| F47W | 10.1 |
| E130D | 67.9 |
| T86Q | 16.4 |
| V145M | -23.3 |
| S27W | 16 |
| Q167E | 48.7 |

Study 6 — target: JUN, bZIP domain (human); technique: DHFR protein complementation; sample: yeast; reference: wild-type JUN-FOS pair; reading: higher = stronger binding
Notes: single substitutions, most at no-binding floor
Starting sequence: JUN, bZIP domain (human); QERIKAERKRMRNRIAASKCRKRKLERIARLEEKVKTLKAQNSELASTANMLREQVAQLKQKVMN; partner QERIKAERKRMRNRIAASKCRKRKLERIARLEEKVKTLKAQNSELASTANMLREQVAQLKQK
| Variant | binding fitness [natural log] |
| --- | --- |
| E44C | -0.634 |
| K34H | -0.0589 |
| R53Y | -0.864 |
| L31A | -1.18 |
| S47M | -0.205 |
| A40Y | -0.635 |
| R53M | -0.662 |
| V56W | -0.813 |
| E33R | -0.314 |
| V56A | -0.643 |
| K36M | -0.161 |
| L31V | -1.19 |
| R53I | -0.98 |
| A57R | -0.315 |
| A49K | -0.972 |
| K39Q | -0.146 |

Other studies, line by line
| Molecule | target | test | system | conditions | scale | measurement | value |
| --- | --- | --- | --- | --- | --- | --- | --- |
| PhoQ, residues 284 288 289 292 302 303 SLCLSL | PhoP, residues 12 14 15 18 19 HLGGL (Escherichia coli, UniProt P23836) | Sort-seq, measured: YFP reporter | E. coli | PhoQ-PhoP variant library, with: 10 µM Mg2+ | reference: high Mg2+ state, higher = stronger signaling | fold induction | 11.3 |

Excerpt of the above (study 1):
| Sequence | E-score |
| --- | --- |
| AGACAAGC | -0.0649 |
| AGAGACTC | -0.175 |
| CGATACAG | -0.0672 |
| GCAAATCC | -0.0388 |
| CATGGTCA | 0.0846 |
| CGTTCATC | -0.043 |
| TCGTGGAA | 0.123 |
| AGCGATAG | -0.141 |
| CTGAAAAA | 0.0267 |
| CGCGCAGC | -0.369 |
| CGCTACTC | -0.00175 |
| TAATACAA | 0.327 |
| AGACGCGG | -0.18 |
| AATCTCAC | -0.0049 |
| CCCCCCTA | -0.267 |
